Assay results from different studies.
Protocols differ between the studies behind these lines.
KAT6A winged helix 1, GST fusion: Histone acetyltransferase KAT6A, winged helix 1, GST fusion (KAT6A, Homo sapiens, UniProt Q92794, residues 1-85)
SALL4 full length isoform A: Sal-like protein 4, full length isoform A (SALL4, Homo sapiens, UniProt Q9UJQ4, residues 1-1053)
UniProt Q9UJQ4, sequence (whole entry, looked up): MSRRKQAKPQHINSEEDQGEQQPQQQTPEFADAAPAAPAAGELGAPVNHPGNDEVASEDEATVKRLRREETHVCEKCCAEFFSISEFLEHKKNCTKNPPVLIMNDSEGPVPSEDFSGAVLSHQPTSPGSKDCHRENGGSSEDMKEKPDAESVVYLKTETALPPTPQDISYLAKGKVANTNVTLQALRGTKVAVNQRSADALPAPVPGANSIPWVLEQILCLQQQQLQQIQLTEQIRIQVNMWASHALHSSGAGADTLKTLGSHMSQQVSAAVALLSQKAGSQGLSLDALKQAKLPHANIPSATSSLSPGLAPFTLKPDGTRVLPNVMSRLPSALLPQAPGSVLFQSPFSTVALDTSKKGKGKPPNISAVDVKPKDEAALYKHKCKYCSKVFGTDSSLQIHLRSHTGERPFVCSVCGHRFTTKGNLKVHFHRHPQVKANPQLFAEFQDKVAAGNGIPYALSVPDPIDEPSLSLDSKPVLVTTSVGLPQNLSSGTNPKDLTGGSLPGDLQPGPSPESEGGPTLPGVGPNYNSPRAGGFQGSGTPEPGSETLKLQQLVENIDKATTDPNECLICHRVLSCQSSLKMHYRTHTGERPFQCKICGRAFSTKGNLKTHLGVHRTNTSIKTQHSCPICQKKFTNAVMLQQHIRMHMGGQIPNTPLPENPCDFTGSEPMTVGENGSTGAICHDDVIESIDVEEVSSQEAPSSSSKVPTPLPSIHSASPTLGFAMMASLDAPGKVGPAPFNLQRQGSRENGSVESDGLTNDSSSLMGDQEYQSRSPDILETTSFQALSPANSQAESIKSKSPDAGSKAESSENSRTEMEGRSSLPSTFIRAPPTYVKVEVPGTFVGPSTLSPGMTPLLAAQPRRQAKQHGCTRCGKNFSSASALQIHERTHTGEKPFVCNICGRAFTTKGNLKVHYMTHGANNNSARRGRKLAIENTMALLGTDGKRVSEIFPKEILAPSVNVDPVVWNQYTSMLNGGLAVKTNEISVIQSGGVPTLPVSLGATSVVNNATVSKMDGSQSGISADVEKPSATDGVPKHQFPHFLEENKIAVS
KAT6A both winged helices, GST fusion: Histone acetyltransferase KAT6A, both winged helices, GST fusion (KAT6A, Homo sapiens, UniProt Q92794, residues 1-181)
IRF7 S471D/S472D/S475D/S476D/S477D/S483D/S484D/S487D full length, phosphomimetic: Interferon regulatory factor 7, full length, phosphomimetic (IRF7, Homo sapiens, UniProt Q92985, residues 1-503, S471D/S472D/S475D/S476D/S477D/S483D/S484D/S487D)
UniProt Q92985, sequence (whole entry, unmodified, looked up): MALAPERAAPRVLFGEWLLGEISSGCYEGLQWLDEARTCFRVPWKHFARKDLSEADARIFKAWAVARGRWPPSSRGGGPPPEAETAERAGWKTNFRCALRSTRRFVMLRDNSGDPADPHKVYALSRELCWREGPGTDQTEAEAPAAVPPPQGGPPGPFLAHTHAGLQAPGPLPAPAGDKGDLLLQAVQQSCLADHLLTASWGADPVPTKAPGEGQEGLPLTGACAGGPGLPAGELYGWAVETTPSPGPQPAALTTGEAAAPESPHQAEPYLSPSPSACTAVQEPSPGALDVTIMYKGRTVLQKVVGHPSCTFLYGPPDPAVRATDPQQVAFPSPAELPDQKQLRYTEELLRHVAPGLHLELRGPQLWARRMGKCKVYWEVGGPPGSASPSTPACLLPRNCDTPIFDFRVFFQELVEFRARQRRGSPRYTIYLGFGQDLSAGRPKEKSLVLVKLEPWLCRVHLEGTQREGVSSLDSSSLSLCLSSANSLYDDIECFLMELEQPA

Substance	target	assay	system	conditions	how to read	endpoint	value
ATCGATAC	KAT6A winged helix 1, GST fusion	protein binding microarray	double-stranded DNA, one strand shown, in vitro	not given, 8-mer, flanks averaged, mean of 2 arrays, mostly near background	baseline: not given, higher = stronger binding	E-score	-0.0597
PhoQ, residues 284 288 289 292 302 303 AEGLLW	PhoP, residues 12 14 15 18 19 QWHVF (Escherichia coli, UniProt P23836)	Sort-seq, refers to: YFP reporter	E. coli	PhoQ-PhoP variant library, added: 10 µM Mg2+	baseline: high Mg2+ state, higher = stronger signaling	fold induction	4.79
GCCCAGTA	KAT6A winged helix 1, GST fusion	protein binding microarray	double-stranded DNA, one strand shown, in vitro	not given, 8-mer, flanks averaged, mean of 2 arrays, mostly near background	baseline: not given, higher = stronger binding	E-score	-0.188
AGCTGCAG	SALL4 full length isoform A	universal PBM	double-stranded DNA, one strand shown, in vitro	600 nM, 8-mer, flanks averaged, mean of replicates	higher = stronger binding	E-score	-0.102
AGTGTACC	KAT6A both winged helices, GST fusion	protein binding microarray	double-stranded DNA, one strand shown, in vitro	not given, 8-mer, flanks averaged, mean of 2 arrays, mostly near background	baseline: not given, higher = stronger binding	E-score	-0.0763
GCCTAGCACGCAAAAATGATTGGTTGAACGTGCTAGGTCTTGATTCGCTTGACGCTGCTG	IRF7 S471D/S472D/S475D/S476D/S477D/S483D/S484D/S487D full length, phosphomimetic	protein-binding microarray	double-stranded DNA, one strand shown, in vitro	2200 nM top, 60-bp whole probe, added: salmon DNA 0.4 mg/ml	baseline: random background probes, higher = stronger binding	fitted relative affinity	-0.46 z-score
GATATTGA	SALL4 full length isoform A	universal PBM	double-stranded DNA, one strand shown, in vitro	600 nM, 8-mer, flanks averaged, mean of replicates	higher = stronger binding	E-score	0.296
AGCAATAA	KAT6A both winged helices, GST fusion	protein binding microarray	double-stranded DNA, one strand shown, in vitro	not given, 8-mer, flanks averaged, mean of 2 arrays, mostly near background	baseline: not given, higher = stronger binding	E-score	-0.251
GCCTAGCACGCTCATTTTTTTTGCAAGCTGTGCTAGGTCTTGATTCGCTTGACGCTGCTG	IRF7 S471D/S472D/S475D/S476D/S477D/S483D/S484D/S487D full length, phosphomimetic	protein-binding microarray	double-stranded DNA, one strand shown, in vitro	2200 nM top, 60-bp whole probe, added: salmon DNA 0.4 mg/ml	baseline: random background probes, higher = stronger binding	fitted relative affinity	0.81 z-score

Repeated from above:
Substance	target	assay	system	conditions	how to read	endpoint	value
PhoQ, residues 284 288 289 292 302 303 AEGLLW	PhoP, residues 12 14 15 18 19 QWHVF (Escherichia coli, UniProt P23836)	Sort-seq, refers to: YFP reporter	E. coli	PhoQ-PhoP variant library, added: 10 µM Mg2+	baseline: high Mg2+ state, higher = stronger signaling	fold induction	4.79
